Measured values of several laboratories.
Compare with care: the assays were run in different laboratories.
Organism: Staphylococcus aureus

With `C#CCOc1ccc(CN[C@@]2(C)C[C@H](O[C@H]3[C@H](Oc4c5cc6cc4Oc4ccc(cc4Cl)[C@@H](O)[C@@H](NC(=O)[C@@H](CC(C)C)NC)C(=O)N[C@@H](CC(N)=O)C(=O)N[C@H]6C(=O)N[C@H]4C(=O)N[C@H](C(=O)N[C@H](C(=O)O)c6cc(O)cc(O)c6-c6cc4ccc6O)[C@H](O)c4ccc(c(Cl)c4)O5)O[C@H](CO)[C@@H](O)[C@@H]3O)O[C@@H](C)[C@H]2O)cc1OC` the MIC was 16 µg/mL (broth microdilution; VISA NRS402, tryptic soy broth; 20 to 24 h, 37 °C, 0.002% polysorbate 80).
`CC(C)C[C@@H]1NC(=O)[C@H](CCCCN)NC(=O)CSC[C@@H](C(=O)N[C@@H](CCCCN)C(N)=O)NC(=O)[C@H](CC(C)C)NC(=O)[C@H](CC(C)C)NC(=O)[C@H](CC(C)C)NC(=O)[C@@H]2CSCC(=O)N[C@@H](CCCCN)C(=O)N[C@@H](CC(C)C)C(=O)N[C@@H](CCCCN)C(=O)N[C@@H](CCCCNC(=O)[C@H](CCCCN)NC1=O)C(=O)N[C@@H](CCCCN)C(=O)N[C@@H](CC(C)C)C(=O)N[C@@H](CC(C)C)C(=O)N2` has an MIC of > 128 µg/mL (broth microdilution; MRSA clinical isolate).
`Cc1ccc2nc(C)c(C(=O)C(=O)N(C)C)n2c1` gave an MIC of > 128 µM (microbial growth, broth dilution).
For `CC(C)CCCCCCCCC/C=C/C(=O)N[C@@H](CC(N)=O)C(=O)N[C@H]1CNC(=O)[C@@H]2CCCN2C(=O)[C@H](C(C)C)NC(=O)[C@@H](CN)NC(=O)CNC(=O)[C@H](CC(=O)O)NC(=O)CNC(=O)[C@H](CC(=O)O)NC(=O)[C@H](CC(=O)O)NC(=O)[C@H]2CCCCN2C1=O`, the MIC was 2 µg/mL (broth microdilution; VISA LIM strain 2, Mueller-Hinton broth, Mg2+ 10 mg/L; 16 h, with: Ca2+ 10 mM).
With `CC[C@H](C)[C@H](NC(=O)[C@@H](CCCNC(=N)N)NC(=O)[C@H](CCCNC(=N)N)NC(=O)[C@@H](NC(=O)[C@H](Cc1c[nH]c2ccccc12)NC(=O)[C@H](CCCNC(=N)N)NC(=O)[C@@H]1CCCN1C(=O)[C@H](CCCNC(=N)N)NC(=O)[C@@H]1CCCN1C(=O)[C@H](CC(C)C)NC(=O)[C@H](Cc1ccc(O)cc1)NC(=O)[C@@H]1CCCN1C(=O)[C@@H]1CCCN1C(=O)[C@H](CCCCN)NC(=O)[C@H](CC(=O)O)NC(=O)[C@@H](N)C(C)C)C(C)C)C(=O)N[C@@H](Cc1ccc(O)cc1)C(=O)N[C@@H](CC(N)=O)C(=O)N[C@H](CCCNC(=N)N)C(N)=O` the MIC was 64 µg/mL (broth microdilution; DSM 6247; 18 h, 37 °C, 25% MHB2).
The MIC of `CN[C@H](CC(C)C)C(=O)N[C@H]1C(=O)N[C@@H](CC(N)=O)C(=O)N[C@H]2C(=O)N[C@H]3C(=O)N[C@H](C(=O)N[C@H](C(=O)NCC(N)=O)c4cc(O)cc(O)c4-c4cc3ccc4O)[C@H](O)c3ccc(c(Cl)c3)Oc3cc2cc(c3O[C@@H]2O[C@H](CO)[C@@H](O)[C@H](O)[C@H]2O[C@H]2C[C@](C)(NCc3ccc(OCc4cn(CC(=O)N[C@H](C(=O)N[C@@H](CCN)C(=O)N[C@H]5CCNC(=O)[C@H]([C@@H](C)O)NC(=O)[C@H](CCN)NC(=O)[C@H](CCN)NC(=O)[C@H](CC(C)C)NC(=O)[C@@H](CC(C)C)NC(=O)[C@H](CCN)NC5=O)[C@@H](C)O)nn4)c(OC)c3)[C@H](O)[C@H](C)O2)Oc2ccc(cc2Cl)[C@H]1O` is reported as 8 µg/mL (broth microdilution; VISA NRS402, tryptic soy broth; 20 to 24 h, 37 °C, 0.002% polysorbate 80).
The MIC of `COc1ccc2ccc(O)c(/C=N/[C@H]3CCCC[C@H]3/N=C/c3c(O)cccc3OC)c2c1` is reported as > 40 µM (bacterial growth, broth microdilution; vancomycin-intermediate).
The MIC of `CC[C@H](C)[C@H](NC(=O)[C@H](CC(C)C)NC(=O)[C@H](CCCNC(=N)N)NC(=O)CNC(=O)CNC(=O)[C@H](CCCCN)NC(=O)[C@H](CCCNC(=N)N)NC(=O)[C@H](CC(C)C)NC(=O)[C@H](CC(C)C)NC(=O)[C@H](CCCNC(=N)N)NC(=O)[C@@H](NC(=O)[C@H](CC(C)C)NC(=O)[C@@H](N)CO)[C@@H](C)O)C(=O)NCC(=O)N[C@@H](Cc1c[nH]c2ccccc12)C(=O)N[C@@H](CCCNC(=N)N)C(=O)N[C@@H](Cc1c[nH]c2ccccc12)C(=O)N[C@@H](CCC(=O)O)C(=O)N[C@@H](CCCCN)C(=O)N[C@H](C(=O)N[C@@H](CCCNC(=N)N)C(=O)N[C@@H](CC(N)=O)C(=O)N[C@@H](Cc1c[nH]c2ccccc12)C(=O)N[C@H](C(=O)N[C@@H](CCCNC(=N)N)C(=O)N[C@@H](CCCNC(=N)N)C(=O)N[C@H](C(=O)N[C@H](C(=O)N[C@@H](CCC(=O)O)C(=O)N[C@@H](CCCCN)C(=O)N[C@@H](CCCNC(=N)N)C(=O)N[C@@H](CCCCN)C(=O)N1CCC[C@H]1C(=O)N[C@@H](CC(N)=O)C(=O)N[C@@H](CCCCN)C(=O)O)[C@@H](C)CC)[C@@H](C)CC)[C@@H](C)CC)[C@@H](C)O` is reported as 17.6 µg/mL (broth microdilution; ATCC 29213, Mueller-Hinton broth; 16 to 20 h, 37 °C).
With `Oc1c(Br)cc(Br)c2nc3cc(C(F)(F)F)ccc3nc12` the MIC was 0.08 µM (broth microdilution; MRSA BAA-44).
`CC[C@H](C)[C@H](N)C(=O)NCC(=O)N[C@@H](CC(C)C)C(=O)N[C@H](CCC(=O)O)C(=O)N[C@H](C(=O)N[C@H]1CCCCNC(=O)[C@H](CC(N)=O)NC(=O)[C@@H](CC(=O)O)NC(=O)[C@H](Cc2c[nH]cn2)NC(=O)[C@@H](Cc2ccccc2)NC(=O)[C@H]([C@@H](C)CC)NC(=O)[C@@H](CCCN)NC1=O)[C@@H](C)CC` has an MIC of > 64 µg/mL (USA300 methicillin-resistant; 18 h, 37 °C, 0.3 mM ZnSO4 LB).
`CC[C@H]1OC(=O)[C@H](C)[C@@H](OC(=O)Cc2ccc3c(c2)OCO3)[C@H](C)[C@@H](O[C@@H]2O[C@H](C)C[C@H](N(C)C)[C@H]2O)[C@](C)(OC)C[C@@H](C)C(=O)[C@H](C)[C@@H](O)[C@]1(C)O` gave an MIC of < 1 µg/mL (BAA-976 msr(A)).
For `N=C(N)NCCC[C@@H]1NC(=O)[C@@H](CCCNC(=N)N)NC(=O)[C@H](CCCNC(=N)N)NC(=O)[C@@H](C(c2ccccc2)c2ccccc2)NC(=O)[C@@H](C(c2ccccc2)c2ccccc2)NC(=O)[C@@H](C(c2ccccc2)c2ccccc2)NC(=O)[C@@H](CCCNC(=N)N)NC1=O`, the MIC was 4 µg/mL (1195201, multidrug-resistant).
The MIC of `Cc1cc(C)c2nc3c(Br)cc(Br)c(O)c3nc2c1` is reported as 0.15 µM (broth microdilution; MRSA 44; 16 h, 37 °C).
The MIC of `CCn1c(-c2ccc(OC)cc2)c(-c2ccc(OC)cc2)n(CC)c1=[Se]` is reported as > 40 µM (microbial growth, broth dilution; ATCC700699 VISA; 24 h, drug-resistant strain).
